Measured values collected from several papers.
Compare with care: the assays were run in different laboratories. Several values in a cell are separate wells, animals, samples, runs or records. ± marks the error that the study gave.
HIPK4: Homeodomain-interacting protein kinase 4 (HIPK4, Homo sapiens, UniProt Q8NE63)
Sequence of UniProt Q8NE63 (whole entry, looked up): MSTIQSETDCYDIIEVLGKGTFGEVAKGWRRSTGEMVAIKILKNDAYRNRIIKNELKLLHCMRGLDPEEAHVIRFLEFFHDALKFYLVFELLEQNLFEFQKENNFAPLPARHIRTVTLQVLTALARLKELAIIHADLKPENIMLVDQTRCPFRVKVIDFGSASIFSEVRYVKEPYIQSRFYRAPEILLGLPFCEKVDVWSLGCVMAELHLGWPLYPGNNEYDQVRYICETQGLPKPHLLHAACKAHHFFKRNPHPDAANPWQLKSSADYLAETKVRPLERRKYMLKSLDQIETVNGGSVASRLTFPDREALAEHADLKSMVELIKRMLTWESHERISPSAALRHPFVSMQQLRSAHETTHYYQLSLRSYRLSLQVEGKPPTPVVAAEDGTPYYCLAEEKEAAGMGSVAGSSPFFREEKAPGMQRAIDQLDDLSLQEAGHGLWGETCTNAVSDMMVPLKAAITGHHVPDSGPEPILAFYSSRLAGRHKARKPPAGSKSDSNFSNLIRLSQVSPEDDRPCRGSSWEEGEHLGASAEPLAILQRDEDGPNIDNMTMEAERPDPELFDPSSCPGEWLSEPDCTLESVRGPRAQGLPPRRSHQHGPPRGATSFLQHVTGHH
ESR2: Estrogen receptor beta (ESR2, Homo sapiens, UniProt Q92731)
Sequence of UniProt Q92731 (whole entry, looked up): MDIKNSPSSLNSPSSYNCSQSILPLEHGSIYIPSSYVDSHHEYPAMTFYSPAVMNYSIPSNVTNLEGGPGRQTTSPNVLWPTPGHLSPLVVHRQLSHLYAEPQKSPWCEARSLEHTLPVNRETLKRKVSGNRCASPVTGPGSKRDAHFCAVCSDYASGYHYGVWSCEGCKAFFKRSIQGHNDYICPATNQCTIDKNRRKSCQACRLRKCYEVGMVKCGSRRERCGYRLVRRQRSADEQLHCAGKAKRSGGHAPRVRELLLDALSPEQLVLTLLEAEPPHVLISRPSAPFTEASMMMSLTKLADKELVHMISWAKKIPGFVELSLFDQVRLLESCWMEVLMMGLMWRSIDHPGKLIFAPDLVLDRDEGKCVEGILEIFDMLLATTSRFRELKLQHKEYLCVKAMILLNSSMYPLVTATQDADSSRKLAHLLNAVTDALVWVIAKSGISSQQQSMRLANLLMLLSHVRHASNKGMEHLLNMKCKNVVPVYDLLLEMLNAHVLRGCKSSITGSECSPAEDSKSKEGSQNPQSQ
SLC6A19: Sodium-dependent neutral amino acid transporter B(0)AT1 (SLC6A19, Homo sapiens, UniProt Q695T7)
Sequence of UniProt Q695T7 (whole entry, looked up): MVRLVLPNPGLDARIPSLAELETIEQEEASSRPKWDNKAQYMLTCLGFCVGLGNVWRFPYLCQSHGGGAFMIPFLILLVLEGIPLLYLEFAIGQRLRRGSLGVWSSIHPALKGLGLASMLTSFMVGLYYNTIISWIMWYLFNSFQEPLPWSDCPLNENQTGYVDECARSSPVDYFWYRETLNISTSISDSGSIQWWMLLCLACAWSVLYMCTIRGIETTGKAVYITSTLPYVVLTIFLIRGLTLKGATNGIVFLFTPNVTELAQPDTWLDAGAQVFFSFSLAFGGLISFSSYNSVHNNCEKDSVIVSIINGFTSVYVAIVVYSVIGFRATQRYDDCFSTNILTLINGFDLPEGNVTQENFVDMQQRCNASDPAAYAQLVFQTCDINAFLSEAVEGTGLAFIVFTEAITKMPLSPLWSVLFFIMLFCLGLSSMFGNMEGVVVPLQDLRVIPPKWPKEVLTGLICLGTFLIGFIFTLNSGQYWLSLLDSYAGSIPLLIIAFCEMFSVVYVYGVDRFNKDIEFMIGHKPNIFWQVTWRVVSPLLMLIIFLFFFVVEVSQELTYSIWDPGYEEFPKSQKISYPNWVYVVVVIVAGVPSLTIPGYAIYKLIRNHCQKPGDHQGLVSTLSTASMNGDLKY
gag-pol integrase: Gag-Pol polyprotein, integrase (gag-pol, Human immunodeficiency virus type 1 group M subtype B, UniProt P04585)
Sequence of UniProt Q92626 (whole entry, looked up): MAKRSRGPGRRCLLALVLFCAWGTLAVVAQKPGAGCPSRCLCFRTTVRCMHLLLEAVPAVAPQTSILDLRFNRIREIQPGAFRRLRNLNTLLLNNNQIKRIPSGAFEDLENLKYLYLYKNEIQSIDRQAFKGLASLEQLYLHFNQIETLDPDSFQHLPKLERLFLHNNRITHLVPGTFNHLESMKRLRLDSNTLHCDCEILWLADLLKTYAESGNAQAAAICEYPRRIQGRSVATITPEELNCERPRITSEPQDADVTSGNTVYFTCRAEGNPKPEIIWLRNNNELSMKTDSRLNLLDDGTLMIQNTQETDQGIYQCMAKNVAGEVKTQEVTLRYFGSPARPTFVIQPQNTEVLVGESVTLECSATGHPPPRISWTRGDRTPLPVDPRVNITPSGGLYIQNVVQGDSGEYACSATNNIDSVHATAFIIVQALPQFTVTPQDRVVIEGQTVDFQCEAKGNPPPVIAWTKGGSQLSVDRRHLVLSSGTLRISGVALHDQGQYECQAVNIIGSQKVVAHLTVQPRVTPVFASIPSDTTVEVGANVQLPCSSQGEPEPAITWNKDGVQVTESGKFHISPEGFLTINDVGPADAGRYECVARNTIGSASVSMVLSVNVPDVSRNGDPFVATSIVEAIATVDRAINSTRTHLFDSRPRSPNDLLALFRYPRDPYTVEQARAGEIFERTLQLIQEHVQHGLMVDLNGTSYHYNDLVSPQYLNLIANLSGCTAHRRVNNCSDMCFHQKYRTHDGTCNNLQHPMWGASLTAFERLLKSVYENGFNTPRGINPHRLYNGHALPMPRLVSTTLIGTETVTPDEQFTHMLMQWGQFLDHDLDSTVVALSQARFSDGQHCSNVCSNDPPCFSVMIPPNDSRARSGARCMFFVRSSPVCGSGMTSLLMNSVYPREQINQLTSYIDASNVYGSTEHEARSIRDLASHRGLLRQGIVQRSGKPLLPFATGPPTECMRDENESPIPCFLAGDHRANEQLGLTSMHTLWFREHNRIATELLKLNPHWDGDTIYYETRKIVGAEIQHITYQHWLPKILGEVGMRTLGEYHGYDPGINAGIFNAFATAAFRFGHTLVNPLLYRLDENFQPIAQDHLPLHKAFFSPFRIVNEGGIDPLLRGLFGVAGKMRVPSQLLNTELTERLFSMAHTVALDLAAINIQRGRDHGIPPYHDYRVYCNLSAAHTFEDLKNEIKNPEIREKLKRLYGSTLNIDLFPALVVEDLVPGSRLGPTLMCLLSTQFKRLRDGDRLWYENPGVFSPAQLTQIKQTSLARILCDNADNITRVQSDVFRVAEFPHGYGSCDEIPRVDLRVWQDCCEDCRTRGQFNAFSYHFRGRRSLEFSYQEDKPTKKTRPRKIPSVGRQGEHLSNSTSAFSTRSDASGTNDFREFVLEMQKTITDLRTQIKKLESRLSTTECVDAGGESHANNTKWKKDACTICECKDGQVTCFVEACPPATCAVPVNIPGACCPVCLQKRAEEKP
Sequence of UniProt Q96GD4 (whole entry, looked up): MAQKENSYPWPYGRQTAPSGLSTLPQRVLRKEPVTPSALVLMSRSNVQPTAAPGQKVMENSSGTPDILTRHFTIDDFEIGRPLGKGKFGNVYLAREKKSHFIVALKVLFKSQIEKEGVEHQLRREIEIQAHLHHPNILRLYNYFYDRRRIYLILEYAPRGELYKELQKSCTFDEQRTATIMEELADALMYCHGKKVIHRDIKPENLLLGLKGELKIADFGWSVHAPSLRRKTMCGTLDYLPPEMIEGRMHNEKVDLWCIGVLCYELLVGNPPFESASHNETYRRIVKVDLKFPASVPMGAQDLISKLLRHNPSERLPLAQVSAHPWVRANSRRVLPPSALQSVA
Sequence of UniProt P48067 (whole entry, looked up): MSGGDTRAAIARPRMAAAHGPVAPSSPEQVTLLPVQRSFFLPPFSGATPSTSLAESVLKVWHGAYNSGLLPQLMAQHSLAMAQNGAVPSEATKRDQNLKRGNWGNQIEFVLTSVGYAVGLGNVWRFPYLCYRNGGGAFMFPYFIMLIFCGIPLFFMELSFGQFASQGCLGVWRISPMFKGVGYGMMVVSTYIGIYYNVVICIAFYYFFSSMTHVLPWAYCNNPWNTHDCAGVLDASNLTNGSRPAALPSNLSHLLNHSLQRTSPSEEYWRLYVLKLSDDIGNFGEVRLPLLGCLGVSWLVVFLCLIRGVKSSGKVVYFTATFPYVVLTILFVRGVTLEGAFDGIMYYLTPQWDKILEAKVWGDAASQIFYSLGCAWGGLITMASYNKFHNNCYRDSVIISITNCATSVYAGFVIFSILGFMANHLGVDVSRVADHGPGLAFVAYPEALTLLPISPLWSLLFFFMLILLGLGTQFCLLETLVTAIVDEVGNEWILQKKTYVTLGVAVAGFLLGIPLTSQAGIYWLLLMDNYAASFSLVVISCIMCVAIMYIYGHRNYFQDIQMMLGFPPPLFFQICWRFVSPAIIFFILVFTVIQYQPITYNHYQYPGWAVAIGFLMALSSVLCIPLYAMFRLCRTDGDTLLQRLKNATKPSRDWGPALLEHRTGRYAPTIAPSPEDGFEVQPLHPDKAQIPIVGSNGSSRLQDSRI
Sequence of UniProt P37173 (whole entry, looked up): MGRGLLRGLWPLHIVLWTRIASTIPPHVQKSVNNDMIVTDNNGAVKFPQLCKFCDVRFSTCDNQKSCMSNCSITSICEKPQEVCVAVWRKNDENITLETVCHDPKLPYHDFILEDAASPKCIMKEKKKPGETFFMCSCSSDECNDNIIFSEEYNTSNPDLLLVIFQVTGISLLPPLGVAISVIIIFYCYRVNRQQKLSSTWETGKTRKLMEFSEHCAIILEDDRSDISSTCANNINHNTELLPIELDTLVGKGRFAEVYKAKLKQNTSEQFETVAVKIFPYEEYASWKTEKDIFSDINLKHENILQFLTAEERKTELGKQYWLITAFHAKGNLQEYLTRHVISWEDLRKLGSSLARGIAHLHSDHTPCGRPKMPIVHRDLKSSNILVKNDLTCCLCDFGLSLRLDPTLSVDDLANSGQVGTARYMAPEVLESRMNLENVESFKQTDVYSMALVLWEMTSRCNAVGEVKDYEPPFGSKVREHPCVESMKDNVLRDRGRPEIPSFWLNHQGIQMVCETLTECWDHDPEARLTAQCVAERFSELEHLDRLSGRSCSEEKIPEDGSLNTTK

The remaining activity of `CC(C)C(=O)Nc1n[nH]c2cc(-c3cccc(NS(=O)(=O)C4CC4)c3)ccc12` is reported as 22.4% (PIP5K1C (Homo sapiens, UniProt O60331); ADP-Glo; 10 µM; relative to: DMSO).
For `COc1cc(F)ccc1-c1ncnc(Nc2cccc(C[S@](C)(=N)=O)c2)n1`, the remaining activity was 102% (DAPK3 (Homo sapiens, UniProt O43293); kinase activity; 10 µM, added: 10 µM ATP).
For `COc1cc(N2CCN(C)CC2)ccc1Nc1nc(N)n(C(=S)NCc2c(Cl)cccc2Cl)n1`, the remaining activity was 0.6% (Ribosomal protein S6 kinase alpha-5, N-terminal kinase domain (RPS6KA5, Homo sapiens, UniProt O75582); enzyme activity; 10 µM; relative to: control).
`C[C@@H](Oc1ccc(S(C)(=O)=O)cc1C(=O)N1C[C@@H]2C[C@]2(c2cc(C(F)(F)F)on2)C1)C(F)(F)F` gave a remaining activity of 3.49% (SLC6A9 (Homo sapiens, UniProt P48067); glycine uptake, inhibitor, [3H]glycine uptake; 0.005 µM, log concentration 5, added: [3H]glycine, 3.5 mg/mL methyl-β-cyclodextrin; relative to: no inhibitor).
With `COc1cc(N2CCN(C)CC2)ccc1Nc1nc(N)n(C(=O)NCc2c(Cl)cccc2Cl)n1` the remaining activity was 8.1% (HIPK4; enzyme activity; 10 µM; relative to: control).
The EC50 of `COc1cc(C2Oc3cc([C@H]4Oc5cc(O)cc(O)c5C(=O)[C@@H]4O)ccc3OC2CO)ccc1O` (stereo partly drawn) is reported as 3920 nM (ESR2; array formation, agonist; GFP-ERβ PRL-HeLa; 1 h).
`C[C@H]1[C@H](OC(=O)CCC(=O)O)O[C@@H]2O[C@@]3(C)CC[C@H]4[C@H](C)CC[C@@H]1[C@@]24OO3` has a remaining activity of 62.5% (Non-structural polyprotein pORF1, helicase domain (Hepatitis E virus genotype 1, UniProt P33424); ATPase activity, inhibitor, colorimetric; 19.5 µM, preincubation 30 min, added: ATP 50 µM; relative to: untreated).
`COc1cc(Nc2ncc3c(n2)-c2ccc(Cl)cc2C(c2c(F)cccc2OC)=NC3)ccc1C(=O)O` gave a remaining activity of 25% (EPHA1; kinase activity; 1 µM).
`COc1c(-c2ccccc2)oc2cc(O)cc(O)c2c1=O` gave an EC50 of 1370 nM (ESR2; array formation, agonist; GFP-ERβ PRL-HeLa; 1 h).
With `Cc1cc(OCC(=O)NC(C)C)cc(C)c1Cl` the remaining activity was 0.549 and 0.683 and 0.666 and 0.583 (SLC6A19; FLIPR membrane potential; CHO-BC; 30 µM, unit not given; relative to: uninhibited).
The inhibition of `CC[C@H](C)C(=O)O[C@H]1C[C@@H](C)C=C2C=C[C@H](C)[C@H](CC[C@@H]3C[C@@H](O)CC(=O)O3)[C@H]21` is reported as 48.4% (Nedd8-cullin1 interaction; neddylation, AlphaScreen; 100 µM).
For `Cc1ccc(-c2cn(C)c3nc(Cl)ccc23)cc1`, the remaining activity was 59% (gag-pol integrase; strand transfer; HIV-1; 10 µM).
`O=C(O)CC[C@H](NC(=O)N[C@@H](CCCCNC(=O)[C@H](Cc1ccc2ccccc2c1)NC(=O)CCCCCNC(=O)CN1CCN(CC(=O)O)CCN(CC(=O)O)CCN(CC(=O)O)CC1)C(=O)O)C(=O)O` [gallium-68 labelled] has an SUVmean of 1.09 ± 0.07 SUV (PET/CT; mouse, 22Rv1 xenograft, tumour; intravenous, 3.7 MBq, 1 h).
With `Cn1cc(-c2ccc(F)cc2)c2ccc(Cl)nc21` the remaining activity was 61.7% (gag-pol integrase; strand transfer; HIV-1; 10 µM).
The remaining activity of `Cc1cc(Cl)cc(C)c1OCC(=O)NC(C)C` is reported as 83.7% (SLC6A19; FLIPR membrane potential; CHO-BC; concentration not given; relative to: 100 µM cinromide set to 0).
For `COc1ccc(F)cc1C(=O)NCc1ccc(-c2nn([C@@H](C)C(F)(F)F)c(N)c2C(N)=O)cc1`, the remaining activity was 95.4 ± 0.7% (PEAK1 (Homo sapiens, UniProt Q9H792); kinase activity, inhibitor, HotSpot radiometric; 1000 nM, added: ATP at Km).
With `C=CC(=O)N1CCC[C@@H](n2nc(-c3ccc(Oc4ccccc4)cc3)c3c(N)ncnc32)C1` the remaining activity was 103% (Aurora kinase B (AURKB, Homo sapiens, UniProt Q96GD4); 1 µM).
For `O=C(NC1CCC1)c1ccc2nc(-c3cccc(NS(=O)(=O)NCCN4CCCCC4)c3)cn2c1`, the remaining activity was 100% (GRK2 (Homo sapiens, UniProt P25098); enzyme activity; 10 µM).
With `c1cnc2ccc(Nc3nc(NC4CC4)c4nc[nH]c4n3)cc2c1` the remaining activity was 89% (MAPK12 (Homo sapiens, UniProt P53778); kinase activity, inhibitor, SelectScreen kinase profiling; 1 µM; relative to: control).
`Cn1cc(-c2ccccc2)c2ccc(-c3ccsc3)nc21` gave a remaining activity of 58.4% (gag-pol integrase; strand transfer; HIV-1; 10 µM).
For `CCOc1cc(N2CCN(C)CC2)ccc1Nc1nc(N)n(C(=O)NCc2ccccc2S(=O)(=O)C(C)C)n1`, the remaining activity was 5.2% (HIPK4; enzyme activity; 10 µM; relative to: control).
For `CCOC(=O)C1=C[C@]2(CC)CCCN3CCc4c(n1c1ccccc41)[C@@H]32`, the inhibition was -4.2% (Nedd8-cullin1 interaction; neddylation, AlphaScreen; 100 µM).
`Cn1cc(-c2ccc3c(c2)OCO3)c2ccc(Cl)nc21` gave a remaining activity of 46% (gag-pol integrase; strand transfer; HIV-1; 10 µM).
With `COc1cc(-c2cncc3c2CN(C)Cc2cc(N4CCNCC4)ccc2-3)cc(OC)c1OC` the remaining activity was 103% (TGFBR2 (Homo sapiens, UniProt P37173); kinase activity; 1 µM, human enzyme, added: ATP 10 µM; relative to: DMSO control).
The tissue uptake of `CC(C)C[C@H](NC(=O)C[C@H](O)[C@H](CC(C)C)NC(=O)[C@H](Cc1c[nH]cn1)NC(=O)CNC(=O)[C@@H](NC(=O)[C@H](C)NC(=O)[C@H](Cc1c[nH]c2ccccc12)NC(=O)[C@H](CCC(N)=O)NC(=O)[C@@H](Cc1ccccc1)NC(=O)COCCOCCNC(=O)CCC(C(=O)O)N1CCN(CC(=O)O)CCN(CC(=O)O)CCN(CC(=O)O)CC1)C(C)C)C(N)=O` (stereo partly drawn) [lutetium-177 labelled] is reported as 2 ± 1 %ID/g (female BALB/c nu/nu mice, stomach; intravenous, 50 pmol, 1 h).
For `O=C(O)c1ccc(Nc2ncc3c(n2)-c2ccc(Cl)cc2C(c2c(F)cccc2F)=NC3)cc1`, the remaining activity was 95% (Fms(h); kinase activity; 1 µM).
For `NC/C(=C\F)COc1cccc(Cn2c(=S)[nH]c(=O)c3[nH]cnc32)c1`, the remaining activity was 69.7% and 69.6% (Peroxidasin homolog (PXDN, Homo sapiens, UniProt Q92626); enzyme activity, inhibitor, Amplex UltraRed; 5 µM; relative to: control).
With `CNc1ncc2c(/C=C/C(=O)N3CCC(OC)CC3)nn(Cc3cccc(C(F)(F)F)c3)c2n1` the remaining activity was 111% (MKNK2 (Homo sapiens, UniProt Q9HBH9); kinase activity, inhibitor; 1 µM; relative to: untreated control).
`Cn1cc(-c2cc(C(F)(F)F)cc(C(F)(F)F)c2)c2ccc(Cl)nc21` has a remaining activity of 51.7% (gag-pol integrase; strand transfer; HIV-1; 10 µM).
For `Cc1cccc(C)c1C(=O)OCC(=O)[C@H](CCCCN)NC(=O)[C@H](CCCNC(=N)N)NC(=O)OCc1ccccc1`, the remaining activity was 100% (Procathepsin L (Mus musculus, UniProt P06797); inhibitor; 1 µM, added: AMC fluorogenic substrate; relative to: untreated).
With `O=C1NC(=O)/C(=C/c2ccc(-c3ccc(F)cc3O)o2)S1` the remaining activity was 63% (MAPKAPK3 (Homo sapiens, UniProt Q16644); enzyme activity; 10 µM).
`Cc1cc(Nc2cc(N3CCN(C)CC3)nc(Sc3ccc(NC(=O)C4CC4)cc3)n2)[nH]n1` has a remaining activity of 99% (MLCK human; kinase activity; 0.03 µM; relative to: control).
`Cc1cc(NC(=O)c2cccc(NC(=O)/C=C/CN(C)C)c2)ccc1Nc1nccc(-c2cccnc2)n1` gave a remaining activity of 1.04 (MAPK8 (Homo sapiens, UniProt P45983); enzyme activity, inhibitor; 8.36e-05 µM, 0 h, unit not given, added: GSH 10 mM pre-incubation; relative to: vehicle).

Some of these lines once more:
`Cc1cc(Nc2cc(N3CCN(C)CC3)nc(Sc3ccc(NC(=O)C4CC4)cc3)n2)[nH]n1` has a remaining activity of 99% (MLCK human; kinase activity; 0.03 µM; relative to: control).
For `COc1cc(F)ccc1-c1ncnc(Nc2cccc(C[S@](C)(=N)=O)c2)n1`, the remaining activity was 102% (DAPK3 (Homo sapiens, UniProt O43293); kinase activity; 10 µM, added: 10 µM ATP).
`Cn1cc(-c2ccccc2)c2ccc(-c3ccsc3)nc21` gave a remaining activity of 58.4% (gag-pol integrase; strand transfer; HIV-1; 10 µM).
`COc1c(-c2ccccc2)oc2cc(O)cc(O)c2c1=O` gave an EC50 of 1370 nM (ESR2; array formation, agonist; GFP-ERβ PRL-HeLa; 1 h).
